Published values pooled from the literature.
Numbered parts are unrelated; each lists some results of a single study. Positions count from the first letter of the parent shown.

Study 1
Target: Fragile X messenger ribonucleoprotein 1, C-terminal low-complexity region (Fmr1, Mus musculus, UniProt P35922)
Technique: RNA Bind-n-Seq
Form: RNA
Medium: in vitro
Tested at: 200 nM
Notes: whole 134-nt RNA, ends assumed
Together with: 150 mM KCl
Baseline: input library
Reading: higher = stronger binding
Shared flanks, not repeated: GGGAGUUCUACAGUCCGACGAUC … UGGAAUUCUCGGGUGUCAAGG
For `UGGCCCUGGUGGCAUGCGGGGAGGAAGAGGUGGCCUCAUGGAUCGUGGUGGUCCCGGUGGAAUGUUCAGAGGUGGCCGUGGUUGAGACAG`, the log2 enrichment was -0.142.
The log2 enrichment of `CUCAAGUCCUGUGCUACACAUCGUAUGUACCGAAUCGGGCCGGCCGGGCCGGGGAAAGUAUUAUGUUACGCCGUUCGGAUCUGCACUUCC` is reported as -0.201.
`CCUCAAGUCCUGUGCUACACAUCGUAUGUACCGAAUCGGAGGGGAGGGGAGGAAAGUAUUAUGUUACGCCGUUCGGAUCUGCACUUCCAG` has a log2 enrichment of 0.444.
The log2 enrichment of `CCUGUGCUACACAUCGUAUGUACCGAAUCGGGCCCCCCGGGGCCCCCCGGGCCCCCCGGGAAAGUAUUAUGUUACGCCGUUCGGAUCUGC` is reported as -0.856.
`AAGUCCUGUGCUACACAUCGUAUGUACCGAAUCGGGUUUGGGGUUUGGGGUUUGGGGAAAGUAUUAUGUUACGCCGUUCGGAUCUGCACU` has a log2 enrichment of 0.61.
The log2 enrichment of `ACCAUGCAGGUGGGCAUCUUUGGGAAGUGGCGCAAGGGGGGGAUAGGGAGGGGGGUAACACUUUGGGAACAGGUGGUCCCAGGUCGUUUC` is reported as 0.997.
`UCCUCAAGUCCUGUGCUACACAUCGUAUGUACCGAAUCGGCGGGCGGGCGGGAAAGUAUUAUGUUACGCCGUUCGGAUCUGCACUUCCAG` has a log2 enrichment of 1.1.
`GUCCUGUGCUACACAUCGUAUGUACCGAAUCGGGGUUUUUGGGGUUUUUGGGUUUUUGGAAAGUAUUAUGUUACGCCGUUCGGAUCUGCA` gave a log2 enrichment of 0.0722.
`UCAAGUCCUGUGCUACACAUCGUAUGUACCGAAUCGGUGGAAAAAGGUUUUUGGAAAGUAUUAUGUUACGCCGUUCGGAUCUGCACUUCC` gave a log2 enrichment of -0.603.
The log2 enrichment of `UCAAGUCCUGUGCUACACAUCGUAUGUACCGAAUCGGAAAGGGAAAGGAAAGGGAAAGUAUUAUGUUACGCCGUUCGGAUCUGCACUUCC` is reported as -0.428.
With `CCUGUGCUACACAUCGUAUGUACCGAAUCGGGAAAAAAGGGAAAAAAGGGGAAAAAAGGGGAAAGUAUUAUGUUACGCCGUUCGGAUCUG` the log2 enrichment was -0.707.
`CACAGACAACACGCACCCACACAGACACAGAGGGAAGGGGUUGGGAUGGGGACAGGGUGCACAGCAGGGCGUGGUAGGACCCCAGCCCCU` gave a log2 enrichment of 1.2.
`CUCAAGUCCUGUGCUACACAUCGUAUGUACCGAAUCGGGGCCGGCCGGCCGGGGAAAGUAUUAUGUUACGCCGUUCGGAUCUGCACUUCC` has a log2 enrichment of 0.0977.
For `CACAGCCAACACGCACCCACACAGACACAGAGGGAAGGGGUUGGGAUGGGGACAGGGUGCACAGCAGGGCGGGGUAGGACCCCAGCCCCU`, the log2 enrichment was 1.27.

Study 2
Target: ABI1, truncated, D143A, DHFR fusion (Arabidopsis thaliana)
Technique: DHFR PCA, deep sequencing
Medium: yeast
Notes: methotrexate growth selection, single substitutions
Together with: (+)-ABA 0 µM
Baseline: wild-type fitted maximum
Reading: higher = stronger binding
Starting sequence: PYL1, truncated, DHFR fusion (Arabidopsis thaliana); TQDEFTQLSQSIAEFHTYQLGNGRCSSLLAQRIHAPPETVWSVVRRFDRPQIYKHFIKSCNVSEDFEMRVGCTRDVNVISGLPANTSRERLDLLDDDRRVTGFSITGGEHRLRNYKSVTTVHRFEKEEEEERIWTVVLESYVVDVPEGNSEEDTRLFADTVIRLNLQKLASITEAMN
`R32D`: “relative binding score” -0.986%.
`I105F`: “relative binding score” -0.254%.
`P37R` — result for “relative binding score”: 0.482%.
Under “relative binding score”, `E139T` is recorded as 12.1%.
`V100D`: “relative binding score” -5.41%.
`V143H`: “relative binding score” -3.85%.
`C72K` — result for “relative binding score”: 1.23%.
`E131P` — result for “relative binding score”: 54.4%.
`F47E`: “relative binding score” -1.92%.
Under “relative binding score”, `R123P` is recorded as 22.2%.
`V76N`: “relative binding score” -4.39%.
For `L138K`, “relative binding score” read -0.955%.

Study 3
Target: CCNF, cyclin fold, Cln2 fusion (human)
Technique: yeast growth competition, sequencing
Medium: yeast
Notes: strong parent motif
Baseline: not given
Reading: higher = stronger binding
Starting sequence: SLBP docking peptide (human); ARYKRKLLINDFG
For `ARAKRKLLINDFG [Y3A]`, “normalised enrichment score” read 4.82.
`SRYKRKLLINDFG [A1S]`: “normalised enrichment score” 1.49.
Under “normalised enrichment score”, `ARYKRKLLINDFK [G13K]` is recorded as 1.68.
Under “normalised enrichment score”, `ARYKRKLEINDFG [L8E]` is recorded as 1.23.
Under “normalised enrichment score”, `ARYKRKLLYNDFG [I9Y]` is recorded as 3.68.
For `ARYKRKLLINKFG [D11K]`, “normalised enrichment score” read 2.6.
`ARYKRKLLINDMG [F12M]`: “normalised enrichment score” 1.54.
`ARYKRKELINDFG [L7E]`: “normalised enrichment score” 0.495.
Under “normalised enrichment score”, `ARYKRKLLINDFH [G13H]` is recorded as 1.72.
`TRYKRKLLINDFG [A1T]`: “normalised enrichment score” 2.63.

Further values, each from its own experiment
With `PhoQ, residues 284 288 289 292 302 303 TGYLSA` the fold induction was 13.8 (PhoP, residues 12 14 15 18 19 NQFFI (Escherichia coli, UniProt P23836); Sort-seq, item: YFP reporter; E. coli; PhoQ-PhoP variant library, together with: 10 µM Mg2+; baseline: high Mg2+ state, higher = stronger signaling).

For quick reference, copied from above (study 2):
For `L138K`, “relative binding score” read -0.955%.
`R32D`: “relative binding score” -0.986%.
